{"data": "Experimental data pooled from the literature", "note": "A part holds a random share of what one study measured. Substitutions count along the parent as printed."}
{"data": "Sample 1", "target": "Histone acetyltransferase KAT6A, winged helix 2, GST fusion (KAT6A, Homo sapiens, UniProt Q92794, residues 85-181)", "technique": "protein binding microarray", "form": "double-stranded DNA, one strand shown", "matrix": "in vitro", "tested at": "not given", "setting": "8-mer, flanks averaged, mean of 2 arrays, mostly near background", "baseline": "not given", "direction": "higher = stronger binding", "Target sequence (chain)": "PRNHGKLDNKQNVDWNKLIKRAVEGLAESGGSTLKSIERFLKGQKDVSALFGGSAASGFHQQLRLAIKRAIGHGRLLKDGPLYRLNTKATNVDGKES"}
{"Sequence": "GACCAACA", "E-score": 0.0844}
{"Sequence": "AGGTATTG", "E-score": -0.0905}
{"Sequence": "TCCTCCAA", "E-score": 0.0739}
{"Sequence": "CCTGTGCC", "E-score": 0.0764}
{"data": "Sample 2", "target": "Sal-like protein 4, full length isoform A (SALL4, Homo sapiens, UniProt Q9UJQ4, residues 1-1053)", "technique": "universal PBM", "form": "double-stranded DNA, one strand shown", "matrix": "in vitro", "tested at": "600 nM", "setting": "8-mer, flanks averaged, mean of replicates", "direction": "higher = stronger binding", "chain of UniProt Q9UJQ4 (whole entry, looked up)": "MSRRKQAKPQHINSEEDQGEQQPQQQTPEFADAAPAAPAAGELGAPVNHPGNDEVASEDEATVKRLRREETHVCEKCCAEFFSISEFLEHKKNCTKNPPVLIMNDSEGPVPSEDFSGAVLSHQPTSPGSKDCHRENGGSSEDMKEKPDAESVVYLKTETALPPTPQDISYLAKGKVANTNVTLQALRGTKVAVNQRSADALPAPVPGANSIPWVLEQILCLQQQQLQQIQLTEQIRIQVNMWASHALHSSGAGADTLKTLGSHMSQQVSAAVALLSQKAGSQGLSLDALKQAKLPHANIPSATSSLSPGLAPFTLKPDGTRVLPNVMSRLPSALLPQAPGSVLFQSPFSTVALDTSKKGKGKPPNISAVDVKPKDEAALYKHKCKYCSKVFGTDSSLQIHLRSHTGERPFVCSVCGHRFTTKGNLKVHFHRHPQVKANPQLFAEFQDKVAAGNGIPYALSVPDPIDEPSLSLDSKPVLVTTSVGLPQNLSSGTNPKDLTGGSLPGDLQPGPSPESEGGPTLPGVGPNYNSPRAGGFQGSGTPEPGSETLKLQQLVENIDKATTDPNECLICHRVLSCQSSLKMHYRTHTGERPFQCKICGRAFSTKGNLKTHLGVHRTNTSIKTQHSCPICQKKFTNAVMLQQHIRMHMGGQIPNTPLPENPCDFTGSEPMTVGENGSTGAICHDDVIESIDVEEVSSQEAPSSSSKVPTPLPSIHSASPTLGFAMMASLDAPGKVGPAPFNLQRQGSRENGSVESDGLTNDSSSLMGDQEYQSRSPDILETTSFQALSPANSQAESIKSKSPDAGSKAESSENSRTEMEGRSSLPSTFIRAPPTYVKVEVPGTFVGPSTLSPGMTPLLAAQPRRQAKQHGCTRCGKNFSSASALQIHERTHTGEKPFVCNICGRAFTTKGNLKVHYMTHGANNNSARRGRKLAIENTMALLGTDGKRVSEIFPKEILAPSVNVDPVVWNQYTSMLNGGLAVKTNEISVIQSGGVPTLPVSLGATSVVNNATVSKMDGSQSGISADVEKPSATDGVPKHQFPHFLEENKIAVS"}
{"Sequence": "CGGCAACG", "E-score": -0.236}
{"Sequence": "CTCGTCAA", "E-score": -0.0832}
{"Sequence": "GCGAACAA", "E-score": 0.0699}
{"Sequence": "ACCGGGTA", "E-score": -0.256}
{"Sequence": "CCACGGGA", "E-score": -0.239}
{"data": "Sample 3", "target": "CCND2, cyclin fold, Cln2 fusion (human)", "technique": "yeast growth competition, sequencing", "matrix": "yeast", "setting": "weak parent motif", "baseline": "not given", "direction": "higher = stronger binding", "parent": "GMNC docking peptide (human); KNAKRNLSSEFAN; partner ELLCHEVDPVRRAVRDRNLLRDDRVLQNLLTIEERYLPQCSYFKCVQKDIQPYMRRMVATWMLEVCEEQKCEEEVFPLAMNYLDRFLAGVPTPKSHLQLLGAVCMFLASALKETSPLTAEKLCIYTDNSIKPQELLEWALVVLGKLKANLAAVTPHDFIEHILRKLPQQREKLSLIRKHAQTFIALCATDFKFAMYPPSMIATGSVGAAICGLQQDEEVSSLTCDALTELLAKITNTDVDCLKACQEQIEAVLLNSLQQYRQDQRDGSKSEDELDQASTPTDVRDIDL"}
{"Substitution": "KNAKRNLSSESAN [F11S]", "normalised enrichment score": 0.142}
{"Substitution": "KNAKRNLSSLFAN [E10L]", "normalised enrichment score": -0.451}
{"Substitution": "KNALRNLSSEFAN [K4L]", "normalised enrichment score": 0.244}
{"Substitution": "KSAKRNLSSEFAN [N2S]", "normalised enrichment score": 0.855}
{"data": "Single results of other studies"}
{"Molecule": "PhoQ, residues 284 288 289 292 302 303 ALASRC", "target": "PhoP, residues 12 14 15 18 19 SPWRL (Escherichia coli, UniProt P23836)", "assay": "Sort-seq, refers to: YFP reporter", "system": "E. coli", "conditions": "PhoQ-PhoP variant library, added: 10 µM Mg2+", "scale": "baseline: high Mg2+ state, higher = stronger signaling", "quantity": "fold induction", "value": 0.439}
